Literature values as cited in several papers.
Each numbered part shows a few of the values that one paper quotes.

Set 1 — target: O-GlcNAcase human
| Structure (SMILES) | IC50 |
| --- | --- |
| CC1CCN(c2ccnc(NCc3cn(C)cn3)n2)CC1 | 46 nM |
| CN1CCN(c2ccnc(NCCc3ccccc3)n2)CC1 | > 10000 nM |
| CC(=O)Nc1nc(CN2CCC[C@H](Cc3cc(C)nc(C)c3)C2)cs1 | > 10000 nM |
| CC(=O)Nc1ncc(CN2CCC[C@H](Cc3cc(C)nc(C)c3)C2)s1 | 1.3 nM |

Set 2 — organism: Toxoplasma gondii; observed: parasite growth; concentration: concentration not given; setting: drug repurposing screen
| SMILES | activity class |
| --- | --- |
| CC12CC3CC(C)(C1)CC(N)(C3)C2 | inactive |
| CCN1CCCC1CNC(=O)c1cc(S(=O)(=O)CC)c(N)cc1OC (stereo not shown) | inactive |
| CN(C)CCC=C1c2ccccc2COc2ccccc21 | inactive |

Other studies, line by line
| Compound | target or system | test | conditions | how to read | measurement | result |
| --- | --- | --- | --- | --- | --- | --- |
| CN(C)CC/C=C1/c2ccccc2Sc2ccc(Cl)cc21 | MCF7 | microarray, refers to: SLC38A7 mRNA | concentration not given | reference: DMSO | log2 fold change | 1.28 |
| C[C@@H]1C[C@H]2[C@@H]3CCC4=CC(=O)C=C[C@]4(C)[C@@]3(F)[C@@H](O)C[C@]2(C)[C@@]1(O)C(=O)CO | – | – | pH 2 | – | logD | 1.9 |
| CCCCCCCCNC(C)C(O)c1ccc(SC(C)C)cc1 (stereo not shown) | MCF7 | microarray, refers to: BHLHE40 | concentration not given | reference: DMSO | mRNA fold change | 2.92 |
